Results of several laboratories.
Numbered parts are unrelated; each lists some results of a single study. Numbers after ± are the reported error.
UniProt Q00535, sequence (whole entry, looked up): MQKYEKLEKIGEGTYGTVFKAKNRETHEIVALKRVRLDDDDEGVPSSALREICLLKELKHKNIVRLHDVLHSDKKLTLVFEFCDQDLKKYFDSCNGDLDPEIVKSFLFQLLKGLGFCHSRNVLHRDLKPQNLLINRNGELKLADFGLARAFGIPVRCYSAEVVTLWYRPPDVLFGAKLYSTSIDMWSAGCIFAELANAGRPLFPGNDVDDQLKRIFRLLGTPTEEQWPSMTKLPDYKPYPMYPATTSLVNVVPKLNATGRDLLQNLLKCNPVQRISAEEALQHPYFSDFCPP
UniProt P13393, sequence (whole entry, looked up): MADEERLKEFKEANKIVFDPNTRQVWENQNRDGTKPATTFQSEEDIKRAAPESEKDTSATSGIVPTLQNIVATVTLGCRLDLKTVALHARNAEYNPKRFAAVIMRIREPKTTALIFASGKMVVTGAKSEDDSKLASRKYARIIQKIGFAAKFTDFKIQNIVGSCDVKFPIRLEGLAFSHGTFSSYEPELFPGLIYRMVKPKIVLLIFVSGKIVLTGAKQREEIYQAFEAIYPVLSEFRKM

Sample 1 — method: sequencing of bound RNA; form: RNA; setting: motif only; library: ssRNA
Target: U2AF2 148-342 (Homo sapiens, UniProt P26368)
UniProt P26368, sequence (whole entry, looked up): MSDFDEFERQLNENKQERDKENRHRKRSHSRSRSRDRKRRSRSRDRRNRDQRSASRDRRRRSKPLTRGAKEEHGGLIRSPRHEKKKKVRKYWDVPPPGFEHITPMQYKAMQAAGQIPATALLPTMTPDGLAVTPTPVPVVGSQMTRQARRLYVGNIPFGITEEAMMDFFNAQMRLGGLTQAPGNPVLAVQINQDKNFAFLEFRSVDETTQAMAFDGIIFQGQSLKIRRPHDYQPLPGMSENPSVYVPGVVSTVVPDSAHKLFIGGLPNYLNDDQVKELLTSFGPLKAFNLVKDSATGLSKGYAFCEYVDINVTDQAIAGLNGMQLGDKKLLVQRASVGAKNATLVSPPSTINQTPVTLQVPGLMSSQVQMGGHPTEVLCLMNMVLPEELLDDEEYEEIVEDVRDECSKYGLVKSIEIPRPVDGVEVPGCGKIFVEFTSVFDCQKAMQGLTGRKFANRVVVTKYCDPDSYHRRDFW
Oligonucleotide | Kd [µM]
CGAAUUCCG | 6.2
GGUUUCUCU | 2.09
GGUUUUUAA | 5.59
CUUAUCUUU | 2.11
GGUAUUCUU | 3.42
GCUUUGGCC | 1.17
CAUUUUAUA | 6.79
CUUUGGCUU | 8.52

Sample 2 — cell line: CYB5R4 knockout human cells; read-out: PP4 interaction; method: 3xFLAG-PP4C IP-MS; tested at: concentration not given; relative to: CYB5R4 KO over parental
B1: SYF1 (human); sequence looked up; chain MVVMARLSRPERPDLVFEEEDLPYEEEIMRNQFSVKCWLRYIEFKQGAPKPRLNQLYERALKLLPCSYKLWYRYLKARRAQVKHRCVTDPAYEDVNNCHERAFVFMHKMPRLWLDYCQFLMDQGRVTHTRRTFDRALRALPITQHSRIWPLYLRFLRSHPLPETAVRGYRRFLKLSPESAEEYIEYLKSSDRLDEAAQRLATVVNDERFVSKAGKSNYQLWHELCDLISQNPDKVQSLNVDAIIRGGLTRFTDQLGKLWCSLADYYIRSGHFEKARDVYEEAIRTVMTVRDFTQVFDSYAQFEESMIAAKMETASELGREEEDDVDLELRLARFEQLISRRPLLLNSVLLRQNPHHVHEWHKRVALHQGRPREIINTYTEAVQTVDPFKATGKPHTLWVAFAKFYEDNGQLDDARVILEKATKVNFKQVDDLASVWCQCGELELRHENYDEALRLLRKATALPARRAEYFDGSEPVQNRVYKSLKVWSMLADLEESLGTFQSTKAVYDRILDLRIATPQIVINYAMFLEEHKYFEESFKAYERGISLFKWPNVSDIWSTYLTKFIARYGGRKLERARDLFEQALDGCPPKYAKTLYLLYAQLEEEWGLARHAMAVYERATRAVEPAQQYDMFNIYIKRAAEIYGVTHTRGIYQKAIEVLSDEHAREMCLRFADMECKLGEIDRARAIYSFCSQICDPRTTGAFWQTWKDFEVRHGNEDTIKEMLRIRRSVQATYNTQVNFMASQMLKVSGSATGTVSDLAPGQSGMDDMKLLEQRAEQLAAEAERDQPLRAQSKILFVRSDASREELAELAQQVNPEEIQLGEDEDEDEMDLEPNEVRLEQQSVPAAVFGSLKED
B2: prohibitin, human; sequence looked up; chain AAKVFESIGKFGLALAVAGGVVNSALYNVDAGHRAVIFDRFRGVQDIVVGEGTHFLIPWVQKPIIFDCRSRPRNVPVITGSKDLQNVNITLRILFRPVASQLPRIFTSIGEDYDERVLPSITTEILKSVVARFDAGELITQRELVSRQVSDDLTERAATFGLILDDVSLTHLTFGKEFTEAVEAKQVAQQEAERARFVVEKAEQQKKAAIISAEGDSKAAELIANSLATAGDGLIELRKLEAAEDIAYQLSRSRNITYLPAGQSVLLQLPQ
B3: peroxiredoxin-1 (human); sequence looked up; chain SSGNAKIGHPAPNFKATAVMPDGQFKDISLSDYKGKYVVFFFYPLDFTFVCPTEIIAFSDRAEEFKKLNCQVIGASVDSHFCHLAWVNTPKKQGGLGPMNIPLVSDPKRTIAQDYGVLKADEGISFRGLFIIDDKGILRQITVNDLPVGRSVDETLRLVQAFQFTDKHGEVCPAGWKPGSDTIKPDVQKSKEYFSKQK
B4: human RBMX; sequence looked up; chain MVEADRPGKLFIGGLNTETNEKALEAVFGKYGRIVEVLLMKDRETNKSRGFAFVTFESPADAKDAARDMNGKSLDGKAIKVEQATKPSFESGRRGPPPPPRSRGPPRGLRGGRGGSGGTRGPPSRGGHMDDGGYSMNFNMSSSRGPLPVKRGPPPRSGGPPPKRSAPSGPVRSSSGMGGRAPVSRGRDSYGGPPRREPLPSRRDVYLSPRDDGYSTKDSYSSRDYPSSRDTRDYAPPPRDYTYRDYGHSSSRDDYPSRGYSDRDGYGRDRDYSDHPSGGSYRDSYESYGNSRSAPPTRGPPPSYGGSSRYDDYSSSRDGYGGSRDSYSSSRSDLYSSGRDRVGRQERGLPPSMERGYPPPRDSYSSSSRGAPRGGGRGGSRSDRGGGRSRY
Sequence | log2 fold change
B1 (SYF1) | 0.75
B2 (prohibitin, human) | -0.34
B3 (peroxiredoxin-1) | 0.18
B4 (human RBMX) | 0.018

Sample 3 — read-out: enzyme activity; method: NADH absorbance; setting: with fumarate 3 mM; together with: L-malate varied
Substance | Hill coefficient
human ME2 M75L | 1.1 ± 0.05
human ME2 I99V | 1.01 ± 0.03
human ME2 E59N | 1 ± 0.01

Other studies, line by line
T1: TOA1/TOA2 1-286; 1-122 (Saccharomyces cerevisiae); chain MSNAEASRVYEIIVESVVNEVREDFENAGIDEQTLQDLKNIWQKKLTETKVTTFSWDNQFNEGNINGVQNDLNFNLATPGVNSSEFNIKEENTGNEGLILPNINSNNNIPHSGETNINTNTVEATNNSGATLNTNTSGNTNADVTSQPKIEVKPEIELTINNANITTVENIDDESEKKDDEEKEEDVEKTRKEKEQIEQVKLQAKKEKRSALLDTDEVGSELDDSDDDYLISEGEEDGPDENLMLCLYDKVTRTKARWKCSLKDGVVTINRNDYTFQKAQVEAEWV; chain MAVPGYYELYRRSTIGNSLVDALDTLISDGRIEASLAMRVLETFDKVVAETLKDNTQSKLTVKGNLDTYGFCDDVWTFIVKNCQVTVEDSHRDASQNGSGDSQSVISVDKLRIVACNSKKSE
Substance | target | assay | test system | conditions | how to read | quantity | value
CTCAGGAATTCCTATGAAGTAATGTGGAGCTCAGTTCAAGTCAATCGGTCC (dsDNA; 5'-amino-C6 primer) | SPT15 full length assumed (Saccharomyces cerevisiae, UniProt P13393) | array | double-stranded DNA, one strand shown | TBP alone |  | Kd | 0.00262 ± 0.00028 µM
KEAFWDRCLSVINLMSSKMLQANA | Cyclin-dependent kinase 5, with p25 (CDK5, Homo sapiens, UniProt Q00535) | phosphotransferase activity, radiometric | peptide | concentration not given, 10% DMSO, together with: histone substrate | relative to: p5-WT peptide | activity change | 47%
TATTATTGGCACTTCTGTATAACTGGCTTTCATTCTCAAGTCAATCGGTCC (dsDNA; 5'-amino-C6 primer) | T1, TOA1/TOA2 1-286; 1-122 (Saccharomyces cerevisiae) | array | double-stranded DNA, one strand shown | TFIIA alone |  | Kd | 0.0547 ± 0.0258 µM

Repeated from above (sample 2):
Sequence | log2 fold change
B3 (peroxiredoxin-1) | 0.18
B1 (SYF1) | 0.75
B2 (prohibitin, human) | -0.34
